Measurements gathered from unrelated publications.
Each line is one published result; not all experiments were run side by side. Numbers after ± are the reported error.
Complement C3: Complement C3 (Homo sapiens, UniProt P01024)
UniProt P01024, sequence (whole entry, looked up): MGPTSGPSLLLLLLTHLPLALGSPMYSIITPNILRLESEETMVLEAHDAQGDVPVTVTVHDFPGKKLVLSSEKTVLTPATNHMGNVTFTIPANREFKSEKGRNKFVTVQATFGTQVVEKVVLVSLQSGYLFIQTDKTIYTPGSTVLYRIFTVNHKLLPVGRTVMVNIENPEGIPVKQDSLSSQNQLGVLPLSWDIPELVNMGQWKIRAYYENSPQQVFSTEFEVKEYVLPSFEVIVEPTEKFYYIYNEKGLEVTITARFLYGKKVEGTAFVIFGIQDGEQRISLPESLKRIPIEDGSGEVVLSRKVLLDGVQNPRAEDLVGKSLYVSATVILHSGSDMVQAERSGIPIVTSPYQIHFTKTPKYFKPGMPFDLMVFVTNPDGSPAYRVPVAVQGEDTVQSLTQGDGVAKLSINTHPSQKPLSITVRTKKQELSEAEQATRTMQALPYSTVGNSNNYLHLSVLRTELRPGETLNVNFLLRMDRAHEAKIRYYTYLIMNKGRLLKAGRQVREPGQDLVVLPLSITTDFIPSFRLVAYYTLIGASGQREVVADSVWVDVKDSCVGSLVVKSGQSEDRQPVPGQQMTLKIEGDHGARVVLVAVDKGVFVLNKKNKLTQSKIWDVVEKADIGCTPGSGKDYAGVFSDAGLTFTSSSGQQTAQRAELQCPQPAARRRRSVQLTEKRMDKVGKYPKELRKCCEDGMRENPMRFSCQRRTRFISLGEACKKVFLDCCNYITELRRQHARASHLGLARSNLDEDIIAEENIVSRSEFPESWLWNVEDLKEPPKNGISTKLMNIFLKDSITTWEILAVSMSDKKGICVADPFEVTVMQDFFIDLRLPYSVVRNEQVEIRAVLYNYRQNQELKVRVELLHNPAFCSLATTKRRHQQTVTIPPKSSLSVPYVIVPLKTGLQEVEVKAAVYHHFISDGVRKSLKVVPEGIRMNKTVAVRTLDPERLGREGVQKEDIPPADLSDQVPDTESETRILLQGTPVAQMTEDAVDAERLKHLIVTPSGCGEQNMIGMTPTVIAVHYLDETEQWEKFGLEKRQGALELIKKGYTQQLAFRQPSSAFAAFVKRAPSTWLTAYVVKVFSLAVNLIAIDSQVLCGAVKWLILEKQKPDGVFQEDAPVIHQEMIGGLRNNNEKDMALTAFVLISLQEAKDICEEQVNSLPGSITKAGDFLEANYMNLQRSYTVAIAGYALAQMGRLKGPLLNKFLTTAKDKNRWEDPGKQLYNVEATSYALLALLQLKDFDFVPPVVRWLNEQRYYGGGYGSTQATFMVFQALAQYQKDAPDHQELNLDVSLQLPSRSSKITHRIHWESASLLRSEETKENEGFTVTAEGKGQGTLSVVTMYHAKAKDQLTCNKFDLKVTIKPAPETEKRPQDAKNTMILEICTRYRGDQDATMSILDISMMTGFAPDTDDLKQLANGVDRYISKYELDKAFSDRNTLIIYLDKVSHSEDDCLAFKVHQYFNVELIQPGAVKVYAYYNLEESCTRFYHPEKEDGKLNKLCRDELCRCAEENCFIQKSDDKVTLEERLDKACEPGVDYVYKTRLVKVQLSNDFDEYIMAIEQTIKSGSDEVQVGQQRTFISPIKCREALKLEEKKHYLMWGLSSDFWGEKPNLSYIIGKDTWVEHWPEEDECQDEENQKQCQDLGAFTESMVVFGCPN
lecA: PA-I galactophilic lectin (lecA, Pseudomonas aeruginosa, UniProt Q05097)
UniProt Q05097, sequence (whole entry, looked up): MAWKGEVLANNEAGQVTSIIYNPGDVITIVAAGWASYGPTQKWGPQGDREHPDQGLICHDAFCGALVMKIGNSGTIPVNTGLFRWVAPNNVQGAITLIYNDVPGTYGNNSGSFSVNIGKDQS
UniProt O14786, sequence (whole entry, looked up): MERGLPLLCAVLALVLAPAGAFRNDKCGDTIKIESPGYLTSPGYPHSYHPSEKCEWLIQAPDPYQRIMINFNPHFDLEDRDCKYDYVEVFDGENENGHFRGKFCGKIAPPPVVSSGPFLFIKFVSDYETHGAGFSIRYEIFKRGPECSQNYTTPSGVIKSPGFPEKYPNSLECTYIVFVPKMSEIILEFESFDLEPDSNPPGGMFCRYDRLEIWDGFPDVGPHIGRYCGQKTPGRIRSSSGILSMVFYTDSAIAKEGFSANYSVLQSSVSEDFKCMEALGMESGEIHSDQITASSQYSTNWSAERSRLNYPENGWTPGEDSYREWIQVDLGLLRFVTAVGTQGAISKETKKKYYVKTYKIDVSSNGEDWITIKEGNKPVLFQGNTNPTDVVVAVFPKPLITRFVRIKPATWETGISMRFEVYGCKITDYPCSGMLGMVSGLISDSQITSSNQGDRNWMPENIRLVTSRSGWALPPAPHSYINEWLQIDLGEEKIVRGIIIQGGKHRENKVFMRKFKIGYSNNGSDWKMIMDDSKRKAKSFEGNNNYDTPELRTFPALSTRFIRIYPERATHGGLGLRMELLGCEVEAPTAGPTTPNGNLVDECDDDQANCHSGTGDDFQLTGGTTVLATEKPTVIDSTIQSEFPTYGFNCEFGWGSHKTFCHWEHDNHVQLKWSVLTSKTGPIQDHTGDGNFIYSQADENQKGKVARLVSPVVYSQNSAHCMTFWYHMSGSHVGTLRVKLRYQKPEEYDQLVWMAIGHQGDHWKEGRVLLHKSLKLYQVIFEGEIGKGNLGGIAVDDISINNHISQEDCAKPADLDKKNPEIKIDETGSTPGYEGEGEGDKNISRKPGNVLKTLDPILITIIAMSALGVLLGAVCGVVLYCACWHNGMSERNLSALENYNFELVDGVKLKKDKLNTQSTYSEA
UniProt Q14145, sequence (whole entry, looked up): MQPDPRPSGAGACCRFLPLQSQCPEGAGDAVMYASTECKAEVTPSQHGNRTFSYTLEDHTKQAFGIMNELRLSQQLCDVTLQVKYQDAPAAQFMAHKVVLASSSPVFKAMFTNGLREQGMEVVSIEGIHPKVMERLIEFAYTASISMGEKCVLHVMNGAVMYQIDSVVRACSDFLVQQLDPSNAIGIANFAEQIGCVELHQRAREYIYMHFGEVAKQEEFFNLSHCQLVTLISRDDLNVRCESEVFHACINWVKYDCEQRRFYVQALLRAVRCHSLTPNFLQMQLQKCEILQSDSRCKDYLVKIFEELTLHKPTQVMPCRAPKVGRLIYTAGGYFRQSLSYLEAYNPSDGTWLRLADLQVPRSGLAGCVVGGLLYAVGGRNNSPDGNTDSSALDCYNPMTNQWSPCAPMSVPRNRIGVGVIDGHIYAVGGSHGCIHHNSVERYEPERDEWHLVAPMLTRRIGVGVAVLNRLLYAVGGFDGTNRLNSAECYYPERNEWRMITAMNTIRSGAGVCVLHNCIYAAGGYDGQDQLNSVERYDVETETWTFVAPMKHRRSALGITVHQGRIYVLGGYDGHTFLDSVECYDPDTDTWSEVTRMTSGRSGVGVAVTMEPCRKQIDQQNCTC
UniProt P63104, sequence (whole entry, looked up): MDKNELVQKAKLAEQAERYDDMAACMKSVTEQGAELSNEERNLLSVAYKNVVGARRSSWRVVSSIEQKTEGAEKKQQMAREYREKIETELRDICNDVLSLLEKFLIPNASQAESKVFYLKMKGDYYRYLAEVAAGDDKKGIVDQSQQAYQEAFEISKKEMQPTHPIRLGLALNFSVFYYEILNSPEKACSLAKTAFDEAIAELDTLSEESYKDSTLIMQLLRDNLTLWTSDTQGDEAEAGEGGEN

Compound | target | assay | test system | setting | ΔH
CCOc1ccc(C[C@@H]2NC(=O)[C@H](C(C)C)NC(=O)[C@@H](NC(=O)[C@@H](NC(C)=O)[C@@H](C)CC)CSSC[C@@H](C(=O)N[C@H](C(N)=O)[C@@H](C)O)NC(=O)[C@H](CCCNC(=N)N)NC(=O)[C@H](Cc3c[nH]cn3)NC(=O)[C@H](C)NC(=O)CNC(=O)[C@H](Cc3c[nH]c4ccccc34)NC(=O)[C@H](CC(=O)O)NC(=O)[C@H](CCC(N)=O)NC2=O)cc1 | Complement C3 | ITC |  | pH 7.4, 25 °C | -16 kcal/mol
Cc1ccc(OCC(=O)N[C@@H](Cc2cn(CCNC(=O)c3ccc(S[C@@H]4O[C@H](CO)[C@H](O)[C@H](O)[C@H]4O)cc3)nn2)C(=O)NCCO)cc1 | lecA | binding, isothermal titration calorimetry |  | 25 °C | -10.8 kcal/mol
CC(C)C[C@H](NC(=O)[C@@H]1CCCN1C(=O)[C@H](Cc1c[nH]c2ccccc12)NC(=O)[C@H](COP(=O)(O)O)NC(=O)[C@H](CO)NC(=O)[C@H](CS)NC(=O)[C@H](CCCCN)NC(=O)[C@H](CO)NC(=O)CNC(=O)CNC(=O)[C@H](C)N)C(=O)N1CCC[C@H]1C(=O)N[C@@H](CCC(N)=O)C(=O)N1CCC[C@H]1C(=O)N[C@@H](CO)C(=O)O | YWHAZ (Homo sapiens, UniProt P63104) | binding, ITC |  | pH 7.4, 37 °C | -4.3 ± 0.215 kcal/mol
C#Cc1ccc(O[C@@H]2O[C@H](CO)[C@H](O)[C@H](O)[C@H]2O)cc1 | lecA | ITC |  | 5% DMSO | -9.5 ± 0.6 kcal/mol
[N-]=[N+]=NCCNC(=O)c1ccc(S[C@@H]2O[C@H](CO)[C@H](O)[C@H](O)[C@H]2O)cc1 | lecA | binding, isothermal titration calorimetry |  | 25 °C | -11.7 ± 0.382 kcal/mol
CC(=O)N[C@@H](CO)C(=O)N[C@@H](CC(C)C)C(=O)N[C@@H](CCC(=O)O)C(=O)N[C@@H](CCC(=O)O)C(=O)N1CCC[C@H]1C(=O)N[C@@H](Cc1c[nH]cn1)C(=O)N[C@@H](COP(=O)(O)O)C(=O)N1CCC[C@H]1C(=O)N[C@@H](CCC(=O)O)C(=O)N[C@H](C(=O)NCC(=O)N[C@@H](CCC(=O)O)C(=O)N[C@@H](CCCCN)C(=O)N[C@H](C(=O)N[C@H](C(=O)N[C@@H](C)C(=O)NCC(=O)N[C@@H](CCC(=O)O)C(=O)N[C@H](C(=O)N[C@@H](CC(N)=O)C(N)=O)C(C)C)C(C)C)C(C)C)[C@@H](C)O | Kelch-like ECH-associated protein 1, Kelch domain (KEAP1, Homo sapiens, UniProt Q14145) | isothermal titration calorimetry | Kelch domain | pH 7, 298.15 K | -10.8 ± 0.14 kcal/mol
O=C(Cc1ccccc1O)N[C@@H](Cc1cn(CCNC(=O)c2ccc(S[C@@H]3O[C@H](CO)[C@H](O)[C@H](O)[C@H]3O)cc2)nn1)C(=O)NCCO | lecA | binding, isothermal titration calorimetry |  | 25 °C | -9.89 ± 0.143 kcal/mol
OC[C@H]1O[C@@H](Oc2ccc(OCc3cn([C@H]4[C@H](O)[C@@H](O)[C@H](c5cn([C@H]6[C@H](O)[C@@H](O)[C@H](n7cc(COc8ccc(O[C@@H]9O[C@H](CO)[C@H](O)[C@H](O)[C@H]9O)cc8)nn7)O[C@@H]6CO)nn5)O[C@@H]4CO)nn3)cc2)[C@H](O)[C@@H](O)[C@H]1O | lecA | isothermal titration calorimetry |  | 25 °C | -15.2 ± 0.2 kcal/mol
O=C(COCCCCc1ccccc1)N[C@@H](Cc1cn(CCNC(=O)c2ccc(S[C@@H]3O[C@H](CO)[C@H](O)[C@H](O)[C@H]3O)cc2)nn1)C(=O)NCCO | lecA | binding, isothermal titration calorimetry |  | 25 °C | -11.1 kcal/mol
[N-]=[N+]=N[C@H]1[C@H](O)[C@@H](O)[C@H](n2cc(CO[C@@H]3O[C@H](CO)[C@H](O)[C@H](O)[C@H]3O)nn2)O[C@@H]1CO | lecA | isothermal titration calorimetry |  | 25 °C | -11.6 ± 0.9 kcal/mol
CC[C@H](C)[C@H](NC(C)=O)C(=O)N[C@H]1CSSC[C@@H](C(=O)N[C@H](C(N)=O)[C@@H](C)O)NC(=O)[C@H](CCCNC(=N)N)NC(=O)[C@H](Cc2c[nH]cn2)NC(=O)[C@H](C)NC(=O)CNC(=O)[C@H](Cc2c[nH]c3ccccc23)NC(=O)[C@H](CC(=O)O)NC(=O)[C@H](CCC(N)=O)NC(=O)[C@H](Cc2ccc(OC)cc2)NC(=O)[C@H](C(C)C)NC1=O | Complement C3 | ITC |  | pH 7.4, 25 °C | -18 kcal/mol
N=C(N)NCCC[C@H](NC(=O)[C@@H]1CCCN1C(=O)[C@H](CC(N)=O)NC(=O)[C@H](CCCNC(=N)N)NC(=O)[C@@H]1CCCN1C(=O)[C@H](CCCCN)NC(=O)[C@H](CCCCN)NC(=O)[C@H](CCC(N)=O)NC(=O)[C@H](CC(=O)O)NC(=O)[C@@H](N)Cc1c[nH]c2ccccc12)C(=O)O | Neuropilin-1 (NRP1, Homo sapiens, UniProt O14786) | binding, ITC |  | pH 7.4, 30 °C | -17 kcal/mol
COCCOCCOc1cc(-c2cn([C@H]3[C@H](O)[C@@H](O)[C@H](n4cc(-c5ccc(O[C@@H]6O[C@H](CO)[C@H](O)[C@H](O)[C@H]6O)cc5)nn4)O[C@@H]3CO)nn2)c(OCCOCCOC)cc1-c1cn([C@H]2[C@H](O)[C@@H](O)[C@H](n3cc(-c4ccc(O[C@@H]5O[C@H](CO)[C@H](O)[C@H](O)[C@H]5O)cc4)nn3)O[C@@H]2CO)nn1 | lecA | ITC |  | 5% DMSO | -10.2 ± 0.5 kcal/mol

Repeated from above:
Compound | target | assay | test system | setting | ΔH
Cc1ccc(OCC(=O)N[C@@H](Cc2cn(CCNC(=O)c3ccc(S[C@@H]4O[C@H](CO)[C@H](O)[C@H](O)[C@H]4O)cc3)nn2)C(=O)NCCO)cc1 | lecA | binding, isothermal titration calorimetry |  | 25 °C | -10.8 kcal/mol
